Published values of several laboratories.
Numbered parts are unrelated; each lists some results of a single study. Positions count from the first letter of the parent shown.

Study 1
Target: RNA binding protein fox-1 homolog 2, RRM domain, GST-SBP tag (RBFOX2, Homo sapiens, UniProt O43251-10, residues 100-194)
Technique: RNA Bind-n-Seq
Molecule type: RNA
Medium: in vitro
Tested at: 365 nM
Notes: natural RNA segment, single round, ends assumed
Reference: no-protein control
Reading: higher = stronger binding
All sequences stand within: GGGAGUUCUACAGUCCGACGAUC … UGGAAUUCUCGGGUGCCAA
Residues (chain): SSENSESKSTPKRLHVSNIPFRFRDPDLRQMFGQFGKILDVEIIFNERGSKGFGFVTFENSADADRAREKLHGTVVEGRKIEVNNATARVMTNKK
Sequence	RBNS enrichment (R)
AUGAUAUAGCAAUCUACCUUAUAUAGAGCCUUCAGAAACUGUGAGUGGAAGUGAGUGAAGCGUAUGACUGCUGGUGAUCAGUGAAUCUGUGAGAGAAUGUGUGCAACUAC	3.14
ACCACCGUAUUUUUAAAGUAUUUUUAUGAUCUUCGUAUACUCACACUUCGCUUGUAUUGUAAAAGGAGGGUAUAUUUGCACUUAUGUAUACUUUGACAGUUUGCCAAGAU	1.7
GGUAGGAUCACUCGCAAGGCCUUGUGAAGGAGUCUUACCUAAAACGAAAGAAAUAUCAGGGACUUUUGUUGACUAUUUACAACUCAGUUUUACAUUUAAAUUCAGGCAGU	0.277
UCAGAGGAGUUAUACUUUGAGGAGAAAACGCAAGAAAGGAAAAGAAAGCAAUUGCAAGAAAGGCGUUGAACAUGAAAAAAUAAAAAGUACCUUAAGAAGGCACAUAUAUA	0.497
AACCCUGGGAUGUGAGCCCUGCCAUGUGCUGGUAACAUGGCUAGGCAUGUUGGGCUUCCCAAACCAUGGAGUCUGGUAACCAGUGAAGGAAGCCCCCAGAAAUAAUGAGU	1.86
UUUUAUUGGGAAAUUAAAUAGUGUGAUAUUUGGGUUGAUAUAAUGAAAUCCUCAGCCUGGAAACUGGGCCAGAUUGUUCCUUGCUUCAAAUAUCUUUUCCUAAAGAAGAU	0.599
AGUGUAGGCCAGCCAUCAUCACAAGGGCCAAGCCCCAAACCCUGUGCUCAAACUGUCAUGGCACCACGGGCAAUGCGGUCCUCCCUACCGUUCUCCUUCCCCUUCUCUGC	0.716
GUUUUCUCUUUAGAAUUUUGUUAAAGAAAUUCUAAAAGUUUUAAACACCUGCUUUCCACAAUAAGCCAUGAACACUACAGUGAGAUUAGUUCCCUAUUAAUACUUCAUUU	0.612

Study 2
Target: Histone acetyltransferase KAT6A, winged helix 1, GST fusion (KAT6A, Homo sapiens, UniProt Q92794, residues 1-85)
Technique: protein binding microarray
Molecule type: double-stranded DNA, one strand shown
Medium: in vitro
Tested at: not given
Notes: 8-mer, flanks averaged, mean of 2 arrays, mostly near background
Reference: not given
Reading: higher = stronger binding
Construct (chain): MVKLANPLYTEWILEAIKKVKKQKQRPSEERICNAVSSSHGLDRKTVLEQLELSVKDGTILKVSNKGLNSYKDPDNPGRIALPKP
Sequence	E-score
CCCGAAAG	-0.045
ACGCTCCT	0.0201
CCGACAGC	0.271
AGGGGGCC	-0.0322
CCGCAGCG	0.368
AACTACCC	-0.0874
GCAGCCCC	-0.00698
ACATGGAG	-0.033
AGTCACCG	0.219
CTACTCAA	-0.0971
ATTGCTGG	-0.0707
AAGCACCT	-0.24
CGGGCGAA	0.269
CCACCAGG	-0.167
AGATTCCG	0.0997
GAACCGCA	0.117
CTCCCCTC	-0.125
GATTCTAA	-0.196
AATCACAA	-0.145
CATACCGG	0.226

Study 3
Target: MAFG, bZIP domain (human)
Technique: DHFR protein complementation
Medium: yeast
Notes: single substitutions, most at no-binding floor
Reference: wild-type JUN-FOS pair
Reading: higher = stronger binding
Starting sequence: JUN, bZIP domain (human); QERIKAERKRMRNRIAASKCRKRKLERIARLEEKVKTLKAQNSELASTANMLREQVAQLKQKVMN; partner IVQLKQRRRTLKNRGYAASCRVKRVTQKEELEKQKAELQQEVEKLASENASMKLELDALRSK
Change	binding fitness [natural log]
T48A	-1.37
I28R	-1.34
A57M	-1.5
V35W	-1.43
A46S	-1.45
A57N	-1.06
L45M	-1.46
A46R	-1.27
L52A	-1.56
T48E	-1.29
A57G	-1.39
L38S	-1.51
L31T	-1.53
Q55N	-1.44
A49K	-1.36
A46H	-1.44
R53K	-1.5
M51G	-1.37
L38E	-1.25
S47C	-1.3
V56R	-1.53
R30S	-1.36
A40W	-1.55
K36A	-1.17
E54I	-1.51

Study 4
Target: RING finger protein unkempt homolog, zinc fingers 1-6, GST-SBP tag (UNK, Homo sapiens, UniProt Q9C0B0, residues 30-357)
Technique: RNA Bind-n-Seq
Molecule type: RNA
Medium: in vitro
Tested at: not given
Notes: RNA with constant flanks, human and mouse sites, ends assumed
Reference: input RNA pool
Reading: higher = stronger binding
All sequences stand within: GGGAGUUCUACAGUCCGACGAUC … CAACAGAGGAUUGAGCAUCA
Residues (chain): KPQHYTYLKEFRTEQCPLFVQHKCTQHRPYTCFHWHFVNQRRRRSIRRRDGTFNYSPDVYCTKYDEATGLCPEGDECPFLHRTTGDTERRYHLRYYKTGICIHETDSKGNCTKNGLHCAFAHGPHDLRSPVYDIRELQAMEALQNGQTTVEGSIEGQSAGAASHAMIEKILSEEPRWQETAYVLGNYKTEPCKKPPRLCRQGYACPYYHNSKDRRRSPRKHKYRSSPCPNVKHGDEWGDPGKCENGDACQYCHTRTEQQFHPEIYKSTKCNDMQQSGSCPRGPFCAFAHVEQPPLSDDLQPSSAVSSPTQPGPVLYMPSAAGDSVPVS
Sequence	bound/input enrichment
AGUCAGUUUGUCCCAGCUGAUCAGAAUUUGCCUCAGAAGUUCCUAAGUGAUGCUGUUCAGGAUCUUUUUCCAGGACAAGCUAUAGAAAAAAAUGAGUUUUUAAGUCAUGACAACCAGAAA	0.7 ratio
UUGCAACUCAGGUUUUAUUUAUUUUGAAACUAUCAGUUAUAUAAACCUAAUUUAUUAUCAAAUAUGAUGGUCAUUAAAAAUAUUUUUACAAGUUGAGAUUUUGACAGAUAGGUACUUGAU	0.698 ratio
AUCCAGGCGGCCCAUGACUCCGUGGCCCAGGAGGGCCAGUGUCGGGUAGAUGACAAAGUGAAUUUCCAUUUUAUUCUGUUCAACAACGUGGACGGCCAUCUGUACGAGCUCGAUGGGCGA	0.0772 ratio
GUGGCAGACGCUGUCACUUACCAGCUUGGUUUCCACAGUAUUGAACUGAACGAGCCUCCACUAGUCCACACAGCCGCCAGUCUCUUUAAGGAGAUGUGUUACCGGUACAGAGAAGAUCUG	0.714 ratio
ACAACACACCUUCCUGAUGGAGGUGCCCGGCUGUUGGAGAAGUCUGGGGGCUUGGAAAUCAUCUUUGAUGUUUACCAGGCCGACGCUGUGGCCACAUUCCGAAAGAAUAACCCUGGCAAA	0.116 ratio
GACCCAGAAAAUAAUCGGGGACAAGAAUCCUUUCCUAGGACUGCUGGACAAGAGGAUCGUAGUCUAAAAAUUAUCAAAAGAACAAAGAAACCCGACCUGCAGAUCUAUCAGCCUGGACGA	1.02 ratio
CUGGACACACUGGAAGAUGACAUGACCAUCAGUGUGGAAAAGAAGGUCCCGCUGUUACACAACUUUCACUCUUUCCUUUACCAACCAGACUGGCGGUUCAUGGAGAGCAAGGAGAAGGAU	0.114 ratio
AUAGAAGGACCUAUAAUUAAGUUAAUGAUUCUUCCAGACCCAGAAAAACCCGUUCGUCUCAAUGUUAAAUAUGACAAAGAUGCAUCCUUCUUAGCAGGGGGUCUUUUCACUGAUUUUAUG	0.124 ratio
